Results of several laboratories.
Each line is one published result; not all experiments were run side by side. Several values in a cell are separate wells, animals, samples, runs or records. ± marks the error that the study gave.
OPRM1: Mu-type opioid receptor (OPRM1, Homo sapiens, UniProt P35372)
inhA: Enoyl-[acyl-carrier-protein] reductase [NADH] (inhA, Mycobacterium tuberculosis, UniProt P9WGR1)

Chains of the proteins cited; added tags and fusions are not shown. Residues count along the entry.
UniProt P35372, whole entry: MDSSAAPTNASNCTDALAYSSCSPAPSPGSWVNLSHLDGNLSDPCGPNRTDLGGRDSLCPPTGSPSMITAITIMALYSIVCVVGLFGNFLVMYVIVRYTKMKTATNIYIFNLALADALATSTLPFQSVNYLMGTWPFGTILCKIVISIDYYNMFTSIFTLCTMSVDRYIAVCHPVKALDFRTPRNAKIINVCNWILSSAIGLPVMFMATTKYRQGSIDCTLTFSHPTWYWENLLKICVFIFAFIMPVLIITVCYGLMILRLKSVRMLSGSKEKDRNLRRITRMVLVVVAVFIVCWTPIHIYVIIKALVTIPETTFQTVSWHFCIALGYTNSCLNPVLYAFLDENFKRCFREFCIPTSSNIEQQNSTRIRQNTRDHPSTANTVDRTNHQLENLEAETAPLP
UniProt P9WGR1, whole entry: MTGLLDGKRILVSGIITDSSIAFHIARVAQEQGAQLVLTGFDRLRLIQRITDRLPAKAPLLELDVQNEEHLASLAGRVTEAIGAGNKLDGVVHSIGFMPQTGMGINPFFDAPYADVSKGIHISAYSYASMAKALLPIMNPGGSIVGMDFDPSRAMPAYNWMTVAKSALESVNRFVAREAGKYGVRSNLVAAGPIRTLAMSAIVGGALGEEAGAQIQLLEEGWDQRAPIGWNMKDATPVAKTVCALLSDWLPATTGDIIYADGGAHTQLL
UniProt P36544, 23-502 limits assumed: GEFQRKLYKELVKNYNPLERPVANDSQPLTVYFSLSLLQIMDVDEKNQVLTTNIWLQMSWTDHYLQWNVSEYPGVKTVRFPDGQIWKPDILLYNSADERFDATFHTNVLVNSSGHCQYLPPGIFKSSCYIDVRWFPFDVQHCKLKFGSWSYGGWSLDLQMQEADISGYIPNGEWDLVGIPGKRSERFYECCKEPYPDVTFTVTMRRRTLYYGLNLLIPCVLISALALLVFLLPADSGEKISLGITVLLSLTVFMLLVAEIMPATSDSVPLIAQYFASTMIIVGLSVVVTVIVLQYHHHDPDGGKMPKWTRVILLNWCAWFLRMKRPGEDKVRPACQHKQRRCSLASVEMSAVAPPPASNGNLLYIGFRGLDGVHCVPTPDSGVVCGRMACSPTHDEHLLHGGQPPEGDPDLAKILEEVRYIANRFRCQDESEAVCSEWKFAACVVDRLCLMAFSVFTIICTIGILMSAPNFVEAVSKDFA
UniProt Q9GZZ6, whole entry, looked up: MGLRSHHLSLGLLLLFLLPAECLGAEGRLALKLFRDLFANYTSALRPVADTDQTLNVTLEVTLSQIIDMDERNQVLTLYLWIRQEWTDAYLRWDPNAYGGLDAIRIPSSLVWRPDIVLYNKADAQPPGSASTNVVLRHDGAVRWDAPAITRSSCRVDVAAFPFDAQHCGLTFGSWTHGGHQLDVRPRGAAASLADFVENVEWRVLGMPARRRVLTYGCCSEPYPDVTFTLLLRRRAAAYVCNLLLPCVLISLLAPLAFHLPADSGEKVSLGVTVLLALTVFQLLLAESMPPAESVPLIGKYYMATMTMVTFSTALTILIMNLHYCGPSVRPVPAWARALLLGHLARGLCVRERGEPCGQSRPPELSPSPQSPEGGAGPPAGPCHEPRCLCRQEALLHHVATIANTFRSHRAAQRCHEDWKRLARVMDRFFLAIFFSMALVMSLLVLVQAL
UniProt Q9UGM1, whole entry, looked up: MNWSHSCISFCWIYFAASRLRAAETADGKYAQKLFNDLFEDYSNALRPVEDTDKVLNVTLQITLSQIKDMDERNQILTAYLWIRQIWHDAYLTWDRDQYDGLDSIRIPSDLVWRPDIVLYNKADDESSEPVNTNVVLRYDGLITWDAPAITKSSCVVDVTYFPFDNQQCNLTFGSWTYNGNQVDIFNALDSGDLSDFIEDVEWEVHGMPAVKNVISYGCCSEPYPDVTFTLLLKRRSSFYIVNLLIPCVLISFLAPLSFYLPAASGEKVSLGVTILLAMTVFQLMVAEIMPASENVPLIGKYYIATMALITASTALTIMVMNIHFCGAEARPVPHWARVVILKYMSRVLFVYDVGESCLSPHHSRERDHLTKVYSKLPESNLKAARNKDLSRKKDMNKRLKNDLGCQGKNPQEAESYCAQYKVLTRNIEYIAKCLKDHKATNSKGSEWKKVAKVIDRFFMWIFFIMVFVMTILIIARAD
UniProt P45974, whole entry: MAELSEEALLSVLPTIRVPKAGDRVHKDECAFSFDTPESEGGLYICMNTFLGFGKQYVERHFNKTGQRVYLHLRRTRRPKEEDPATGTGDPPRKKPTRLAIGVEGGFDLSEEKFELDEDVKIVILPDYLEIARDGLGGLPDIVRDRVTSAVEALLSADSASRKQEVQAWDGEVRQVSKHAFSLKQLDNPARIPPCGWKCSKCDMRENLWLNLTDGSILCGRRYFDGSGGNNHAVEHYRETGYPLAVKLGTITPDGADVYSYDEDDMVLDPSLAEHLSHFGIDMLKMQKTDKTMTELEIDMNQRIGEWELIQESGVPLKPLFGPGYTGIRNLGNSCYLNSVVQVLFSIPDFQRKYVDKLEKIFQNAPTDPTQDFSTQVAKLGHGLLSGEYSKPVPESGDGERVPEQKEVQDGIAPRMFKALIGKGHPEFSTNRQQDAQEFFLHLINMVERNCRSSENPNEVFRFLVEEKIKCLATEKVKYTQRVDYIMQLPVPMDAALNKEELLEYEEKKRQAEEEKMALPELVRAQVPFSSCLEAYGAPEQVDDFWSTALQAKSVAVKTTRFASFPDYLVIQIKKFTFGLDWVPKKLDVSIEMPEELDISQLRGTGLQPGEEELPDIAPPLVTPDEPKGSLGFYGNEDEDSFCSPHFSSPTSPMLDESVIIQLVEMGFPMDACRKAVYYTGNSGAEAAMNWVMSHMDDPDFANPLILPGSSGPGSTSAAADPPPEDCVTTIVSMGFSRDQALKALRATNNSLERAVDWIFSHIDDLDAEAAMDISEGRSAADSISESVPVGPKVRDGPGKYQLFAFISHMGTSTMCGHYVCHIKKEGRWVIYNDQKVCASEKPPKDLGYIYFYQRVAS
UniProt O15393, whole entry S251D/R252D/Q253D/S254D/R255K, looked up: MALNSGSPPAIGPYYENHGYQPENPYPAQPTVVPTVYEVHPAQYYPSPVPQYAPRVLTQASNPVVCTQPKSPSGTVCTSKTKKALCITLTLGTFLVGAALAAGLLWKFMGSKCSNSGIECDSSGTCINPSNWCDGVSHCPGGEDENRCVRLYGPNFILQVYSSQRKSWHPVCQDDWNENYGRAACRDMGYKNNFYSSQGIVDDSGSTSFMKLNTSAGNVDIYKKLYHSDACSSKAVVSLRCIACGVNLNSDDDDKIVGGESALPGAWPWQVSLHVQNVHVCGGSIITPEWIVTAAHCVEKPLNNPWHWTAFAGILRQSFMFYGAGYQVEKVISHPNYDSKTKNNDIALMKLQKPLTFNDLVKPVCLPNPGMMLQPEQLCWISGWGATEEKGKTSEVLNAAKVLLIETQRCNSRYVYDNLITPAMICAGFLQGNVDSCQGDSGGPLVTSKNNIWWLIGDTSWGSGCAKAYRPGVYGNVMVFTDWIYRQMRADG
UniProt O95551, whole entry: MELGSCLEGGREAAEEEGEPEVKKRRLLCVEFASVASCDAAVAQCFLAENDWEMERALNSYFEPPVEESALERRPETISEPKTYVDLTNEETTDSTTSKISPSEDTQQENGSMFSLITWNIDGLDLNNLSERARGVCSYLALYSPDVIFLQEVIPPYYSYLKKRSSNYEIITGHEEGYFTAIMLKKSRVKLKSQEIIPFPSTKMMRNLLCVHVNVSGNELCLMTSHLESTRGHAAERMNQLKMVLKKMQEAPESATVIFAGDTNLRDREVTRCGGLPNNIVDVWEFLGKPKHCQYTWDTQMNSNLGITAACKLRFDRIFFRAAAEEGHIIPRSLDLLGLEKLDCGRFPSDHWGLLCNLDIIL
UniProt P08172, whole entry: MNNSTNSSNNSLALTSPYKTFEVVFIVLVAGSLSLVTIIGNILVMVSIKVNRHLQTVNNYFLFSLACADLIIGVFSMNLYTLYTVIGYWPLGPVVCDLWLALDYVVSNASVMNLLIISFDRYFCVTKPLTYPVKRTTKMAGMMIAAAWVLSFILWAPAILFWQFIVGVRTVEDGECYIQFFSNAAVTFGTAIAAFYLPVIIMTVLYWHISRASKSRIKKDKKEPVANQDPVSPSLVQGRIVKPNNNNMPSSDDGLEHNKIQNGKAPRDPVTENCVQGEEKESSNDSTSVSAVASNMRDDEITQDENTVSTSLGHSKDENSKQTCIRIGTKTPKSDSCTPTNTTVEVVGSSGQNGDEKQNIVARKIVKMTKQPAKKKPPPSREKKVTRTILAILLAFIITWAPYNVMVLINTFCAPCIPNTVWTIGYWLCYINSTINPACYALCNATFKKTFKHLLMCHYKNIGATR
UniProt P06730, whole entry: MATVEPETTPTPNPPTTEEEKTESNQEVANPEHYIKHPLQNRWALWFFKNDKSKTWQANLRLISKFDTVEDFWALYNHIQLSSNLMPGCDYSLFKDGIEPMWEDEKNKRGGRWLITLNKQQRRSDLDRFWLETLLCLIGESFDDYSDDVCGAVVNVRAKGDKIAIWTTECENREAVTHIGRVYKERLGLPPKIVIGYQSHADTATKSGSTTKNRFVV
UniProt Q9P0L9, whole entry F549I: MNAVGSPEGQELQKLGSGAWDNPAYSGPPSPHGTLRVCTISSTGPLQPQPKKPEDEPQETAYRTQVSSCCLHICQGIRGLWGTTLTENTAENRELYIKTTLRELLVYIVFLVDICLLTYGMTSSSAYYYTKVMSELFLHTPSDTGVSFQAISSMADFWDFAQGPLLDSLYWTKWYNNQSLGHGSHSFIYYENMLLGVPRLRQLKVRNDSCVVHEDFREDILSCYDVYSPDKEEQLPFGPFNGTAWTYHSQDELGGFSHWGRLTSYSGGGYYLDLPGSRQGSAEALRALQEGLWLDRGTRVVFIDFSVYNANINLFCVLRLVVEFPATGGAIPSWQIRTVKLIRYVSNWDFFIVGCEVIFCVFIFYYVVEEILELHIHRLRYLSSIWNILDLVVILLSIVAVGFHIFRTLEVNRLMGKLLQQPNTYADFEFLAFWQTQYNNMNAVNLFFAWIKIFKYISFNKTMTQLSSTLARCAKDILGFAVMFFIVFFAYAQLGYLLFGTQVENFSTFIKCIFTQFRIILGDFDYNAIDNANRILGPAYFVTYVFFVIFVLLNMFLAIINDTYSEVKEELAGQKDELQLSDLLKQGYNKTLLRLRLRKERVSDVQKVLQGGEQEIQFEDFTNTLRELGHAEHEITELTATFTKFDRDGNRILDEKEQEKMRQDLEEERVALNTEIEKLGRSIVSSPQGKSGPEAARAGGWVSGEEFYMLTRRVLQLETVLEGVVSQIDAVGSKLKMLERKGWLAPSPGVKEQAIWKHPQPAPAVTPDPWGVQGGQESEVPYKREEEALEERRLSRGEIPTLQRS

`C[C@@H]1NC(=O)[C@H](CCCNC(=N)N)NC(=O)[C@H](CCCNC(=N)N)NC(=O)[C@@H]2CCCN2C(=O)[C@H](CO)NC(=O)[C@@H]2CSSC[C@H](NC(=O)CN)C(=O)N[C@@H](CSSC[C@@H](C(N)=O)NC(=O)[C@H](CO)NC(=O)[C@H](CCCNC(=N)N)NC1=O)C(=O)N[C@@H](CO)C(=O)N[C@@H](Cc1c[nH]cn1)C(=O)N1CCC[C@H]1C(=O)N[C@@H](C)C(=O)N2` has a remaining response of 16 ± 8% (CHRNA7 (Homo sapiens, UniProt P36544); ion current, antagonist; Xenopus oocytes; 10 µM, 5 min, with: acetylcholine; reference: control).
`CN1CC[C@]23c4c5ccc(O)c4O[C@H]2c2ncc(-c4ccc(Cl)cc4)cc2C[C@@]3(OCCCc2ccccc2)[C@H]1C5` has an Emax of 118 ± 1% (OPRM1; agonist; reference: DAMGO).
The inhibition of `CC[C@H](C)[C@@H]1NC(=O)[C@H](CCC(=O)O)NC(=O)[C@@H]2CCCN2C(=O)[C@H](Cc2c[nH]cn2)NC(=O)[C@H](CC(=O)O)NC(=O)[C@H](Cc2ccc(O)cc2)NC(=O)[C@H](CC(N)=O)NC(=O)[C@@H]2CSSC[C@@H]3NC(=O)CNC(=O)COCCOCCOCCOCCOCCNC(=O)[C@H](CSSC[C@H](NC3=O)C(=O)N[C@@H](CO)C(=O)N[C@@H](CC(=O)O)C(=O)N3CCC[C@H]3C(=O)N[C@@H](CCCNC(=N)N)C(=O)N2)NC1=O` is reported as about 50% (Neuronal acetylcholine receptor; alpha9/alpha10 (Homo sapiens, UniProt Q9GZZ6+Q9UGM1); ACh-evoked current, two-electrode voltage clamp; Xenopus oocytes; 1 µM, with: ACh 6 µM).
For `C#CCOCCC(=O)N[C@H](Cc1ccccc1)C(=O)N[C@@H](Cc1ccccc1)C(=O)N[C@@H](CCCNC(=N)N)C(=O)CCl`, the selectivity ratio was over 275 fold (Replicase polyprotein 1ab, main protease (rep, Severe acute respiratory syndrome coronavirus 2, UniProt P0DTD1); enzyme activity, inhibitor; reference: PLpro IC50 over target IC50).
For `ON=C1c2nonc2C(=NO)c2nonc21`, the inhibition was 94% (USP5 (Homo sapiens, UniProt P45974); inhibitor; 17 µM).
With `CC(C)(C)O[C@@H]1C[C@@H](C(=O)N[C@H](Cc2ccccc2)C(=O)C(=O)NCc2ccc(Cl)cn2)N(C(=O)[C@@H](NC(=O)C2CCC(F)(F)CC2)C2CCCCC2)C1` the inhibition was -8.18% and -1.12% and -2.17% (TMPRSS2 (Homo sapiens, UniProt O15393, Q253D/R252D/R255K/S251D/S254D); enzyme activity, inhibitor; 500 µM).
For `N#Cc1ccc(-c2ccc(COCCc3ccc(-c4nc5cc(-c6ccccc6)ccn5c4Nc4ccc(C(=O)O)cc4)cc3)cc2)nc1`, the selectivity was 36 fold (TDP2 (Homo sapiens, UniProt O95551); reference: TDP1 potency over TDP2 potency).
With `COC(=O)[C@@H]1C=C(OC(=O)c2ccc(CO)cc2)C(=O)[C@H]2[C@@]1(C)CC[C@H]1C(=O)O[C@H](c3ccoc3)C[C@]21C` the ligand efficiency was 0.38 (OPRM1; G-protein signalling, agonist).
With `COc1ccc(CN[C@@H]2CO[C@H](C(c3ccccc3)c3ccccc3)C[C@H]2O)cc1` the inhibition was 23% (CHRM2 (Homo sapiens, UniProt P08172); radioligand binding; 10 µM, with: [3H]QNB).
For `N#Cc1ccccc1Oc1ccc(Cn2cc(C3CCCCC3)nn2)cc1O`, “isomerization rate k5” read 0.27 min⁻¹ (inhA; 20 °C, EI to EI*).
With `Cc1ccc(-c2csc(NP(=O)(O)OCC3OC(n4c[n+](Cc5ccccc5)c5c(=O)[nH]c(NC(=O)c6ccccc6)nc54)C4OC(C)(C)OC34)n2)cc1` (stereo not shown) the fold change was 1.15 (EIF4E (Homo sapiens, UniProt P06730); measured: EIF4E; MCF7; concentration not given; reference: untreated).
`Cc1ccccc1Oc1ccc(Cn2cc(C3CC3)nn2)cc1O` gave a residence time of 190 ± 10 min (inhA; enzyme inhibition, inhibitor, progress curve analysis; 20 °C).
Under “loss of potency”, `CN(C(=O)Cc1ccc(Cl)c(Cl)c1)C1CCCCC1N1CCCC1` (stereo not shown) is recorded as 2 (PKD2L1 (Homo sapiens, UniProt Q9P0L9, F549I); ion current; mutant F549I, unit not given; reference: wild type).

For quick reference, copied from above:
`CN1CC[C@]23c4c5ccc(O)c4O[C@H]2c2ncc(-c4ccc(Cl)cc4)cc2C[C@@]3(OCCCc2ccccc2)[C@H]1C5` has an Emax of 118 ± 1% (OPRM1; agonist; reference: DAMGO).
With `COC(=O)[C@@H]1C=C(OC(=O)c2ccc(CO)cc2)C(=O)[C@H]2[C@@]1(C)CC[C@H]1C(=O)O[C@H](c3ccoc3)C[C@]21C` the ligand efficiency was 0.38 (OPRM1; G-protein signalling, agonist).
